Measurements from different studies.
Parts stem from different laboratories: compare values within a part only. Positions count from the first letter of the parent shown.

Series 1 — technique: DHFR PCA, deep sequencing; medium: yeast; together with: (+)-ABA 1.4 µM; reference: wild-type fitted maximum; reading: higher = stronger binding; quantity: relative binding score
Target: ABI1, truncated, D143A, DHFR fusion (Arabidopsis thaliana)
Notes: methotrexate growth selection, single substitutions
Starting sequence: PYL1, truncated, DHFR fusion (Arabidopsis thaliana); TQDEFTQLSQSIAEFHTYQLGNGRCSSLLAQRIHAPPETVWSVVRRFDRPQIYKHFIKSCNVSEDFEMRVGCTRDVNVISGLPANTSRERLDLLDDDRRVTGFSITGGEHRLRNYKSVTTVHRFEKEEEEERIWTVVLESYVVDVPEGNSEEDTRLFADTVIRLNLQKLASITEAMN
D96F: -2.9%
T173N: 4.38%
I57K: -3.35%
K168N: 85.6%
Y115E: -5.44%
Q7D: 60.3%
R113N: 55.8%
P37L: 10.1%
H16L: 2.75%
E14M: 23.3%
E64W: 21.3%
V143M: 3.91%
N149K: 7.79%
S117V: 5.97%
A175S: 51.1%
K168V: 14.6%

Series 2 — technique: RNA Bind-n-Seq; form: RNA; medium: in vitro; tested at: 200 nM; notes: whole 134-nt RNA, ends assumed; together with: 150 mM LiCl; reference: input library; reading: higher = stronger binding; quantity: log2 enrichment; all molecules: 7-deaza-guanosine replaces G
Target: Fragile X messenger ribonucleoprotein 1, C-terminal low-complexity region (Fmr1, Mus musculus, UniProt P35922)
All sequences stand within: GGGAGUUCUACAGUCCGACGAUC … UGGAAUUCUCGGGUGUCAAGG
AAGUCCUGUGCUACACAUCGUAUGUACCGAAUCGGUUUUUUUGGAAAGGAAAAAGGAAAGUAUUAUGUUACGCCGUUCGGAUCUGCACUU: -2.47
GCAGGAAGUAAAAACAAAUGGAAAUGCUUCGGAUAGUGGCAGGGGUGGGGGUUGCUAAGGAAAGGGCGGGAUGGGAGUGGGUAAAGAGUU: 1.36
ACCAUGCAGAUGGGCAUCUUUGGGAAGUGGGGCAAGGGGGGGAUAGGGAGGGGGGUAACACUUUGGGAACAGGUGGUCCCAGGUCGUUUC: 1.41
GCAGGAAGUAAAAACAAAUGGAAAUGCUUCGGAUAGUGGCAGGGGUGGGGGUUGCUAAGGUAAGGGUGGGAUGGGAGUGGGUAAAGAGUU: 1.55
UCCUGUGCUACACAUCGUAUGUACCGAAUCGGGGUUUGGGGAAAGGGGUUUUUUUGGGGAAAGUAUUAUGUUACGCCGUUCGGAUCUGCA: -0.4
CCUGUGCUACACAUCGUAUGUACCGAAUCGGCCCCCCCGGGCCCCCCCGGCCCCCCCGGGAAAGUAUUAUGUUACGCCGUUCGGAUCUGC: 0.912
UCAAGUCCUGUGCUACACAUCGUAUGUACCGAAUCGGAAAAAAAGGAAAGGAGGAAAGUAUUAUGUUACGCCGUUCGGAUCUGCACUUCC: -1.12
UGAGAGGUGGAUUUUGUUUAUUUUUUUAGCUCAUUUCCAGGGGUGGGAAUUUUUUUUUAAUAUGUGUCAUGAAUAAAGUUGUUUUUGAAA: -0.211
UAACUUUAGAGGAAGAUCUGAUGGAUAUGGCAGUGGACGUGGAUUUGGGGAUGGCUAUAAUGGGUAUGGAGGAGGACCUGGAGGUGGCAA: 0.501
GCAGGAAGUAAAAACAAAUGGAAAUUCUUCGGAUAGUGGCAGGGGUGGGGGUUGCUAAGGAAAGGGUGGGAUGGGAGUGGGUAAAGAGUU: 1.58
CUGUGCUACACAUCGUAUGUACCGAAUCGGGGUUUUUUUGGGGAAAAAGGGGAAAAAGGGGAAAGUAUUAUGUUACGCCGUUCGGAUCUG: -1.04

Series 3 — target: MAFG, bZIP domain (human); technique: DHFR protein complementation; medium: yeast; reference: wild-type JUN-FOS pair; reading: higher = stronger binding; quantity: binding fitness
Notes: single substitutions, most at no-binding floor
Starting sequence: JUN, bZIP domain (human); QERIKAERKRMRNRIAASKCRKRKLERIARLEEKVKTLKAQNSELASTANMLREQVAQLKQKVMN; partner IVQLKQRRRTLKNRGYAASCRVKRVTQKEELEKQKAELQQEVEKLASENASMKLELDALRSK
E32M: -1.54 natural log
N42P: -1.45 natural log
T48P: -1.54 natural log
E32A: -1.51 natural log
Q55T: -1.51 natural log
S47M: -1.27 natural log
V56W: -1.54 natural log
S47E: -1.44 natural log
Q41D: -1.51 natural log
A29H: -1.4 natural log
N42C: -1.27 natural log
Q41F: -1.48 natural log
E54H: -1.2 natural log
R30Q: -1.43 natural log
L52Q: -1.51 natural log
I28Y: -1.53 natural log
L52G: -1.53 natural log

Series 4 — technique: protein-binding microarray; form: double-stranded DNA, one strand shown; medium: in vitro; tested at: 940 nM top; notes: 60-bp whole probe; together with: salmon DNA 0.4 mg/ml; reference: random background probes; reading: higher = stronger binding; quantity: fitted relative affinity; all sequences stand within: GCCTAGCAC … GTCTTGATTCGCTTGACGCTGCTG
Target: Interferon regulatory factor 5, full length, phosphomimetic (IRF5, Homo sapiens, UniProt Q13568-2, residues 1-514, S451D/S453D/S456D/S462D)
TAGTTTTCAATTTTTGCATCGTGCTAG: 1.08 z-score
GACGGTCGCCTACTGCTGACGTGCTAG: -0.69 z-score
TCTCGCTTCATCTCCCAGACTGTGCTA: 8.06 z-score
GACGGTTTCCTTCTCATGACGTGCTAG: 1.94 z-score
TTTATTTTCAGTATTACCTCGTGCTAG: 2.03 z-score
GACGATATCAGTCTCGAGTCGTGCTAG: 2.18 z-score
GACGAACTGCTTATCCTGACGTGCTAG: 0.109 z-score
TGCCATATTTATCTGCAAAGGTGCTAG: 0.0785 z-score
TCTTTTTGCTTTCTTTATGCGTGCTAG: 2.38 z-score
GACGGTATAGGTCTCGGGACGTGCTAG: 0.373 z-score
AAGGTTACCCATCTCAAGTAGTGCTAG: -0.17 z-score
TTAGGACTGGACTTTCGGTGAGTGCTA: 1.31 z-score
TGCTTCCTCTTTTTTGTTCCGTGCTAG: 2 z-score
CTCTCCATGTGTTTAAAAAGGTGCTAG: 0.516 z-score
GACGGTGTCGGTCTCGGGACGTGCTAG: 1.29 z-score
TGAGGTTTCCTTTTCCTTTAGTGCTAG: 1.33 z-score
GACGGAGTGGGACTGGGGACGTGCTAG: -0.616 z-score
TTCTGATCCATTTTGGTTTTGTGCTAG: 0.418 z-score
TGAGGTATCCTTCTCCTTTAGTGCTAG: 0.456 z-score
GACGGTTTCCTTATCCTGGCGTGCTAG: 2.38 z-score
GACGGTCTCCCTATCCTGACGTGCTAG: 0.587 z-score
TTAGAAATCAGTCTCGATTAGTGCTAG: 3.66 z-score

Series 5 — organism: Saccharomyces cerevisiae; read-out: binding; technique: competitive growth deep sequencing; form: peptide; strain: cyclin E1-Cln2 fusion strain; tested at: concentration not given; notes: peptide tiling library; reading: direction not given; quantity: growth enrichment score
TRRRLFVENDSP: 2.54
NFETPEAETPIRSPFK: 0.724
VLVRTSACRSLFGPVD: 0.553
GAEELEDLVHFSVSEL: 0.944
TSPGPVLLHPSPSTTQ: 0.47
DGCSPIKNWSPMRL: 1.54
SDSTVTKLDFDLEP: 0.276
VLPGGVPSPGASLTSM: 0.573
NNIRKALSFDNRGEEH: -1.05
FQDSGYNELKSCSFDN: 0.827
LENIEPLQVSFAVLSS: 0.273
RNRGPKLNAMLRLGVL: -0.617
VRDLSYRLVFLACCVA: -0.613
AEHPKPSACRNLFGPV: 2.69
SGYLTDENEVGFRG: 0.557
KDDDKAWEYEERDRRS: 0.34
QNPCGSKACRRLFGPV: 1.88
PQWPCGKHKRVLIFAS: 0.283

Series 6 — technique: RNA Bind-n-Seq; form: RNA; medium: in vitro; tested at: 365 nM; reference: no-protein control; reading: higher = stronger binding; quantity: RBNS enrichment (R)
Target: RNA binding protein fox-1 homolog 2, RRM domain, GST-SBP tag (RBFOX2, Homo sapiens, UniProt O43251-10, residues 100-194)
Notes: natural RNA segment, single round, ends assumed
All sequences stand within: GGGAGUUCUACAGUCCGACGAUC … UGGAAUUCUCGGGUGCCAA
Construct (chain): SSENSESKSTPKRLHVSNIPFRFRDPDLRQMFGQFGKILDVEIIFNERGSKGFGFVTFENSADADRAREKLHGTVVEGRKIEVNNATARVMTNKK
GUUGCAUGGGUGUGUGUCGCUGUGCAGGCCUGCCUGGGCUACCAUCUCCACUCCCCAUGUCUCUGAGGUUCACUCCAGCCACCAUUUCUUUAGGCAGCUCUGCCUUAACC: 0.902
AGAUUUUAGGUAGGAGGGGAGCAGAGGAAUUAUGAACUGGGGUAAACCCAUUUUGAAUAUUAGCAUUGCCAAUAUCCUGUAUUCUUGUUUUACAUUUGGAUUAGAAAUUU: 0.61
GGAGGGACGGAGCCGGACUGGACAUGGUCACUCAGUACCGCCUGCAGUGUCGCCAUGACUGAUCAUGGCUCUUGCAUUUUUGGGUAAAUGGAGACUUCCGGAUCCUGUCA: 0.767
AUACUUUUAAUGGUAAGAAAUGAACUUGAGGUCCCAGGAGGUUUUGUUGCCUUUUCAUUGAUUAGAGACAAUAAAUAUCUUGUAACUUCCUAACCAGAUCUGAGCUGUGC: 0.289
AUGCUGCCAUGCUGGGGGGGGGUCACCCCGACCCCUCAGGCCCACCUGUCACGGGGAACAUGGAGCCUUGGUGUAUUUUUCUUUUCUUUUUUUAAUGAAUCAAUAGCAGC: 0.418
UUCCUUUCACUACCUUCUUUUUUGGGGGUAGUUGGAAGGGACUGAAAUUGUGGGGGGAAGGUAGGAGGCACAUCAAUAAAGAGGAAACCACCAAGCUGAACUGAAUUUUG: 0.435
AAGUCAUACCCUGUGAGUAACUGGCCUGUAAUGGCGCUCUUCCUAGGACAGUGGUGACCUUGUCUGUGCCGGUGACUGCACCCUGCAGGUAACAGUGAAAGCUUUUAAGC: 0.22
UCUGGGCCUUUUUAAAAACAUAAUUAUAUACUUUAGAAAUACAAGGGAUUCCGAUAUGUCAGGACCUAAAUGGCCUAAGCACCUGUCAAAUUAAAAUUCCAAAAUUCAUU: 0.322
GUGGAGCAGGGUGGGGCGGGGCUACAGGUUCUGUGUGCACCUGUCACCUCCACUAACGCUGUCUCAGUGUUUUCUCUCUCUCUCUCGAGCUCGUAGUCCAGCGCCUGACU: 0.466
GAUAAUUGAAGGGUACUUCUGUCUGCUCCAAUUUCCAUUCCUUGGUAUACUCAGUAUGUCCUAGUAAGGAAGGCUUUCCACUCUACUGGCUCCUUAAGAAGCAAAAGUAG: 0.407
UGUGCUUCCCAGGGACAGAGCGUGUGCUGUGGCGGCUAGGCUCCUUGGAGGUCACAAGCAGCUGGCCAGGGUAAUGUCCCUUGGUCCAUGGGGCUGUGGCCCGUGCUGUA: 0.513
AGGUUGUUCACCUUUUCAUCUGAAAAUGCUUUACUCUGACUAUGUGCUAUUGGGUUUUAUUUCCAGAAAAUAUAGUUCUCCUUUUUUCUGCAUGAAGGAUACAUCGUGGU: 1.39
